Measurements from different studies.
Each line is one published result; not all experiments were run side by side.

N#Cc1ccc2c(-c3ccncc3)c(-c3ccc(F)cc3)nn2c1 — log2 fold change (kinase binding, competitor, MIB/MS competition, item: PKH2; Candida albicans cell lysate; 1 µM; reference: DMSO): 0.144
CCCCCN1C[C@H](O)[C@@H](O)[C@H](O)[C@@H]1CO — number of increased sphingolipids (mouse Hexb-/-, plasma; 30 mg/kg/day; reference: untreated Hexb-/- mice): 9
C[C@H](Oc1ccc(Br)cc1-c1ccon1)C(=O)O — difference from placebo (MVRC latency; human, tibialis anterior muscle; 200 mg, SAD): -0.166 ms
CC(C)NCC(O)c1ccc(O)c(O)c1 (centres unmarked) — sarcomere length (ventricular cardiomyocytes, C57BL/6 mouse; dose not given, 0.36 s): 1.72 µm
Oc1ncnc2[nH]ncc12 — EC50 (Toxoplasma gondii; parasite growth; HFF, bradyzoite, glutamine-induced): 30 µM
OC(CCN1CCCCC1)(c1ccccc1)C1CC2C=CC1C2 (centres unmarked) — EEG gamma power, O2 Pz (resting-state EEG; healthy elderly humans; oral, 2 mg, eyes open, LS mean): 0.9 µV²
O=C(O[C@]12C[C@H]3C[C@H](C[C@H](C3)C1)C2)c1ccc(NCc2cc(O)ccc2O)cc1 — EC50 (Toxoplasma gondii; parasite growth; HFF, bradyzoite, glutamine-induced): 5.96 µM
NC(=O)c1cnc2[nH]ccc2c1N[C@@H]1[C@@H]2CC3C[C@H]1C[C@@](O)(C3)C2 — percent change (CD4+ central memory T cells, flow cytometry; Caucasian humans, peripheral blood; 60 mg single dose; reference: baseline): -0.52%
C[C@H]1C[C@H]2CSC(N)=N[C@@]2(c2nc(NC(=O)c3ccc(OC(F)F)cn3)cs2)CO1 — percent change from baseline (item: Aβx-40; healthy adults, plasma; 5 mg once daily, day 4; reference: placebo): -40.5%
O=C(O)CNC(=O)Cc1ccccc1 — sarcomere length (ventricular cardiomyocytes, C57BL/6 mouse; dose not given, 0.64 s): 1.71 µm
Cc1n[nH]c2ccc(-c3cc(OC[C@@H](N)Cc4ccccc4)cnc3-c3ccoc3)cc12 — log2 fold change (kinase binding, competitor, MIB/MS competition, item: YPK1; Candida albicans cell lysate; 100 nM; reference: DMSO): -0.0854

A few entries again:
C[C@H](Oc1ccc(Br)cc1-c1ccon1)C(=O)O — difference from placebo (MVRC latency; human, tibialis anterior muscle; 200 mg, SAD): -0.166 ms
CC(C)NCC(O)c1ccc(O)c(O)c1 (centres unmarked) — sarcomere length (ventricular cardiomyocytes, C57BL/6 mouse; dose not given, 0.36 s): 1.72 µm
